Assay results pooled from the literature.
± gives the spread as reported.
MAPK14: Mitogen-activated protein kinase 14 (MAPK14, Homo sapiens, UniProt Q16539)
Chain of UniProt Q16539 (whole entry, looked up): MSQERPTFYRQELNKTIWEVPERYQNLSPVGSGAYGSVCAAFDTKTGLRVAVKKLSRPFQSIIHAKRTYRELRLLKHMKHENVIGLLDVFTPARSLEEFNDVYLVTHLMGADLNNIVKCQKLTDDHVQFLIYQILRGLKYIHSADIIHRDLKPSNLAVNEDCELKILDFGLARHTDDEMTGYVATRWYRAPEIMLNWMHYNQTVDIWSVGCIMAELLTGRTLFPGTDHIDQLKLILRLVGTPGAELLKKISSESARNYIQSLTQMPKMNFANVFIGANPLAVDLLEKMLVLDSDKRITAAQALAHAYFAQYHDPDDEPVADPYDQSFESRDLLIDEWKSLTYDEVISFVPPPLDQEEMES
TDP1: Tyrosyl-DNA phosphodiesterase 1 (TDP1, Homo sapiens, UniProt Q9NUW8)
Chain of UniProt Q9NUW8 (whole entry, looked up): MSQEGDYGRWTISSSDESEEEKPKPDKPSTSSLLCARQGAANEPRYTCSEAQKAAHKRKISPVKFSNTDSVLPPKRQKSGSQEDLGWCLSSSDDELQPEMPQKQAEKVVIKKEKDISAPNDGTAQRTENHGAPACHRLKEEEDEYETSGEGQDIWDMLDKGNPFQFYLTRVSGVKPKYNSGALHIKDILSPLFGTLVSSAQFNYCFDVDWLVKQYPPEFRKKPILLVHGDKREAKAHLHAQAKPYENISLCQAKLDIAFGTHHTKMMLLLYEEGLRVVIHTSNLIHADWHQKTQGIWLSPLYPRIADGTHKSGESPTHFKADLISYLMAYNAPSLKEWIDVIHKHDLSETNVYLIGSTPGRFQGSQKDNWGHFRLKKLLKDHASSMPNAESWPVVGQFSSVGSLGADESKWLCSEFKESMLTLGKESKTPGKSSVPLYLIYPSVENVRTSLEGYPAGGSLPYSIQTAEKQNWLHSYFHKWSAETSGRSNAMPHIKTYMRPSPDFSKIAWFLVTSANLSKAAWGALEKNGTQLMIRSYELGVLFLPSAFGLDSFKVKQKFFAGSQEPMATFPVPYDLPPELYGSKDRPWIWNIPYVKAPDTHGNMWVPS
Seed linoleate 13S-lipoxygenase-1: Seed linoleate 13S-lipoxygenase-1 (Glycine max, UniProt P08170)
Chain of UniProt P08170 (whole entry, looked up): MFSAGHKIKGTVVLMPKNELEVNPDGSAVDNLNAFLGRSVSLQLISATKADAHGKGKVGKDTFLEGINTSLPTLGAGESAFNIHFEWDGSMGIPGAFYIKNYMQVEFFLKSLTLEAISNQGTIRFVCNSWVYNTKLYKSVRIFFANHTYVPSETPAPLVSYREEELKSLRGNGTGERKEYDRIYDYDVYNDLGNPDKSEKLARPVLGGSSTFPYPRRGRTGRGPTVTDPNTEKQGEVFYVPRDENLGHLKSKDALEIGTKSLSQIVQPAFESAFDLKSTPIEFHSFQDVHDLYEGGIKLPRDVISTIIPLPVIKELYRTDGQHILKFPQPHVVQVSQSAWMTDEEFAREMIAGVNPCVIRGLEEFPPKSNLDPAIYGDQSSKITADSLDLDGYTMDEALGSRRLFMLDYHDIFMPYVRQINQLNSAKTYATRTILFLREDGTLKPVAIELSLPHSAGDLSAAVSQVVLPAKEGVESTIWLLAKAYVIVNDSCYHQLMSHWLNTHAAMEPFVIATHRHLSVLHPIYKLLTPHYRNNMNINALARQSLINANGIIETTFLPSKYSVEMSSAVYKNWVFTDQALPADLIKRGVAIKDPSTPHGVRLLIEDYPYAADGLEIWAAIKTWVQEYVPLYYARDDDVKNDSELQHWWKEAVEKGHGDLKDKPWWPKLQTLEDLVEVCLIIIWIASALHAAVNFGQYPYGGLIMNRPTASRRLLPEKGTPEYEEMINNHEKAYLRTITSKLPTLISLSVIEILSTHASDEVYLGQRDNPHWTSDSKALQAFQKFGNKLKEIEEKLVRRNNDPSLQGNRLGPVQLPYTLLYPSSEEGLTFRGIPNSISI
Chain of UniProt P22411 (whole entry, looked up): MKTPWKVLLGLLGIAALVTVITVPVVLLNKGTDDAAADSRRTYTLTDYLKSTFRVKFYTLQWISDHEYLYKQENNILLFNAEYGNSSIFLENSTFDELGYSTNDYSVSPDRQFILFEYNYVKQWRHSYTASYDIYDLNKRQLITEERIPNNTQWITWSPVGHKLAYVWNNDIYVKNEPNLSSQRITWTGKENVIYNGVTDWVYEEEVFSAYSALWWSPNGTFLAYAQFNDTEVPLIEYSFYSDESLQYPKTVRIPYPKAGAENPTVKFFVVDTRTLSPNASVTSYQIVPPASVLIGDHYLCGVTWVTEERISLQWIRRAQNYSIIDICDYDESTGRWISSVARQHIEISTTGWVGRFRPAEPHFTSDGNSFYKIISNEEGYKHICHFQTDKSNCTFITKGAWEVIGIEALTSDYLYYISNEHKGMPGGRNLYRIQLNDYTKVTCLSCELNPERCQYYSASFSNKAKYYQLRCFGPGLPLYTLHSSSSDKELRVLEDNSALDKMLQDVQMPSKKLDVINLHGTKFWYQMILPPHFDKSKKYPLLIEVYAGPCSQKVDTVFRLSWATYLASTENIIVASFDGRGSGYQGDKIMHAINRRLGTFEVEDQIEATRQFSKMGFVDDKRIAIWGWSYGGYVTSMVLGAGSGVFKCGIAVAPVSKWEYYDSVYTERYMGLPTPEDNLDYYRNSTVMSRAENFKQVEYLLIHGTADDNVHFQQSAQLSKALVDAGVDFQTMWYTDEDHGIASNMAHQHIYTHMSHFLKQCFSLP
Chain of UniProt Q9NPH5 (whole entry, looked up): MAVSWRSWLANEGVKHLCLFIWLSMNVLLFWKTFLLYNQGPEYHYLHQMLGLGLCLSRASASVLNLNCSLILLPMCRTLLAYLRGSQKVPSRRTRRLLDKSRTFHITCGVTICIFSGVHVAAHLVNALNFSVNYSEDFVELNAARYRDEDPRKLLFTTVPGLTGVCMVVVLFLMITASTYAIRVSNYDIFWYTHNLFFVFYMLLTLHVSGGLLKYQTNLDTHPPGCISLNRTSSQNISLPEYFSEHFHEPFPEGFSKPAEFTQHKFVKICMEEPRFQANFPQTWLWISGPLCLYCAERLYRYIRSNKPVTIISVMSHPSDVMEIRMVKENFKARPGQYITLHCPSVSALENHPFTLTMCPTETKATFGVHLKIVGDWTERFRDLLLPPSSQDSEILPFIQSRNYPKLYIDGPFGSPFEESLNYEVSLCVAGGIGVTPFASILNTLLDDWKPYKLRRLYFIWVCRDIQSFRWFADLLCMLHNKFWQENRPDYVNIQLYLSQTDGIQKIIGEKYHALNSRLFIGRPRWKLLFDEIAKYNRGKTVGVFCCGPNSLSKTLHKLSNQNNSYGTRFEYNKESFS
Chain of UniProt P04049 (whole entry, looked up): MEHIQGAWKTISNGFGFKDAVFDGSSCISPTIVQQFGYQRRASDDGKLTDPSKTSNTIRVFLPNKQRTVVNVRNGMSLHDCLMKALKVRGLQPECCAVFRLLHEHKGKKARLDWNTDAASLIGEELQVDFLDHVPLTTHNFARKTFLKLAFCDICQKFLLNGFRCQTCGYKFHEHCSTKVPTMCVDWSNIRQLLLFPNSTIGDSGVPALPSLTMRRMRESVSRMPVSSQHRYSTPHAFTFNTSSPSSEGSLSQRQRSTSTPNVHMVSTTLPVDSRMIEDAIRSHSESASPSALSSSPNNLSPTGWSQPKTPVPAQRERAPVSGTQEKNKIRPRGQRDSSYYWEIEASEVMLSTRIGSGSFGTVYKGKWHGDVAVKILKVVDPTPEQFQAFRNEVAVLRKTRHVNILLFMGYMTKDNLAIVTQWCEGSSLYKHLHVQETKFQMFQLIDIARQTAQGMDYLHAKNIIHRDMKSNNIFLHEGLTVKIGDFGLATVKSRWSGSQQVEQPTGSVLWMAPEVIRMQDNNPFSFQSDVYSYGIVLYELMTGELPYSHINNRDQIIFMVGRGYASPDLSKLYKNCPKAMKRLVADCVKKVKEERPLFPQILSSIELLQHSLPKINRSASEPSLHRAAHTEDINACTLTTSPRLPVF
Chain of UniProt C0HJB3 (whole entry, looked up): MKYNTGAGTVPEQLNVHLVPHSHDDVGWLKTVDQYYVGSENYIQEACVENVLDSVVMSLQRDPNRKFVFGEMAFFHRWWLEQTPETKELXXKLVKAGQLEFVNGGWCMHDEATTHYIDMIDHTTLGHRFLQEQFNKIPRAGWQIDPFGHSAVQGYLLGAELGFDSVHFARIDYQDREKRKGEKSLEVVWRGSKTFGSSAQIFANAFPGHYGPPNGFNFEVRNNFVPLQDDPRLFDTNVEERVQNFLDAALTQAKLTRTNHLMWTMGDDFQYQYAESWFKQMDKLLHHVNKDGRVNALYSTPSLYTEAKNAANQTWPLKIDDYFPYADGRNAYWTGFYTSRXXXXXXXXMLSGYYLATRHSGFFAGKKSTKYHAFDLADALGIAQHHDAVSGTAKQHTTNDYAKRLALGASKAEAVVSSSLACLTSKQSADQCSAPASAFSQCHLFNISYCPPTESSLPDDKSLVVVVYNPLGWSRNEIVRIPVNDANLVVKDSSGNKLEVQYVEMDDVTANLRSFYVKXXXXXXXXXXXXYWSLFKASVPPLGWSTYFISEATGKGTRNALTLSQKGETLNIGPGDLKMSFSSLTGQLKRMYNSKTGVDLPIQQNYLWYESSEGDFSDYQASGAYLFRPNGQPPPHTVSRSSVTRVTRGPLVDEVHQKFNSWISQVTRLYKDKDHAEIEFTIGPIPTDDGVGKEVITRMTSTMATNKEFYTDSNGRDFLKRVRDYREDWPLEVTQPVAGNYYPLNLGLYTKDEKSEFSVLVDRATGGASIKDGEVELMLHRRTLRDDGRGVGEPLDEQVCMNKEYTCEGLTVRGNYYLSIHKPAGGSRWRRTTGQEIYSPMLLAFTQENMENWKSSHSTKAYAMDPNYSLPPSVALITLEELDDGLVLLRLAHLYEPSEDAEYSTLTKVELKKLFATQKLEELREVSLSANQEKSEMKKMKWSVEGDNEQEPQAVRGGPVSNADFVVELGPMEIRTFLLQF

SMILES | target | assay | system | conditions | inhibition
O=C(c1ccco1)N1CCN(Cc2ccc(Br)cc2)CC1 | MAPK14 | primary fragment screen | – | 1 mM, added: ATP 10 µM | 76.1%
Cc1cncc(Oc2ccc(C=NOCc3ccc(-c4nc5cc(-c6ccccc6)ccn5c4Nc4ccc(C(=O)O)cc4)cc3)cc2)n1 | TDP1 | enzyme activity, inhibitor | – | 100 µM | 111%
COc1c2c(cc3oc(=O)cc(C)c13)C(=O)c1cc(C)cc(O)c1C2=O | mushroom tyrosinase | enzyme activity | – | 25 µg/mL, added: L-DOPA | 41 ± 0.62%
COc1cc(OC)c(C(=O)/C=C/c2ccccc2)c(O)c1O | Dipeptidyl peptidase 4 (DPP4, Sus scrofa, UniProt P22411) | enzyme activity, inhibitor, absorbance | – | 50 µg/mL | 97.4%
Cc1cc(O)c2c(c1)C(=O)c1cc3oc(=O)cc(C)c3c(O)c1C2=O | mushroom tyrosinase | enzyme activity | – | 100 µg/mL, added: L-DOPA | 38.55 ± 0.17%
Nc1n[nH]c(Nc2ccc(Cl)cc2)n1 | MAPK14 | primary fragment screen | – | 1 mM, added: ATP 10 µM | 7.9%
Cc1cc(O)cc2c1C(=O)c1c(cc3oc(=O)cc(-c4ccc(O)cc4)c3c1O)C2=O | mushroom tyrosinase | enzyme activity | – | 50 µg/mL, added: L-DOPA | 13.2 ± 0.66%
COc1cc(/C=C/C(=O)CC(C)=O)ccc1O | Thioredoxin reductase 1, cytoplasmic (Txnrd1, Rattus norvegicus, UniProt O89049) | enzyme activity, inhibitor, absorbance | – | 50 µM, 30 min, pH 7.4 | 15 to 25%
O=C(NCc1ccncc1)c1cc(F)cc(F)c1 | MAPK14 | primary fragment screen | – | 1 mM, added: ATP 10 µM | 57.3%
O=C1c2ccccc2C(=O)c2c1ccc1c2C(C(=O)NCc2ccccc2)C(=O)C1c1ccccc1 (stereo not shown) | mushroom tyrosinase | enzyme activity, inhibitor, spectrophotometry | – | 100 µg/mL, added: L-DOPA substrate | 50.6 ± 1.08%
COc1cc(OC)c2c(c1)C(=O)c1cc3oc(=O)cc(C)c3c(O)c1C2=O | mushroom tyrosinase | enzyme activity | – | 25 µg/mL, added: L-DOPA | 34.9 ± 0.41%
NCC(=O)NCC(=O)NCC(=O)NCC(=O)NCC(=O)NCC(=O)NCCCC[C@H](NC(=O)[C@@H]1CCCN1C(=O)[C@@H]1CSSCCC(=O)N[C@@H](Cc2ccc(O)cc2)C(=O)N[C@@H](Cc2ccccc2)C(=O)N[C@@H](CCCC(N)=O)C(=O)N[C@@H](CC(N)=O)C(=O)N1)C(=O)NCC(N)=O | Vasopressin V1a receptor (AVPR1A, Homo sapiens, UniProt P37288) | ligand displacement, radioligand | – | 10 µM | > 50%
c1ccc2c(c1)Nc1nc3ccccc3nc1N2 | NADPH oxidase 4 (NOX4, Homo sapiens, UniProt Q9NPH5) | enzyme activity, inhibitor, fluorescence | – | 100 µM, cell membranes | 40 to 50%
O=C1c2ccccc2C(=O)c2c1ccc1c2C(C(=O)Nc2ccccc2Cl)C(=O)C1c1ccccc1 (stereo not shown) | mushroom tyrosinase | enzyme activity, inhibitor, spectrophotometry | – | 100 µg/mL, added: L-DOPA substrate | 64.3 ± 1.52%
CCn1c(SC(C)C(=O)Nc2ccc(C)cc2C)nnc1C1CCN(C(=O)Nc2ccccc2)CC1 (stereo not shown) | Seed linoleate 13S-lipoxygenase-1 | enzyme activity, inhibitor | – | 250 µM | 85.6%
COc1cc(OC)c2c(c1)C(=O)c1cc3oc(=O)cc(-c4ccccc4)c3c(O)c1C2=O | mushroom tyrosinase | enzyme activity | – | 25 µg/mL, added: L-DOPA | 22.89 ± 0.21%
O=C(O)c1ccc(Nc2c(-c3ccc(CON=Cc4ccc(-c5cnccn5)cc4)cc3)nc3cc(-c4ccccc4)ccn23)cc1 | TDP1 | enzyme activity | – | 100 µM, primary screen | > 90%

SMILES | target | assay | system | conditions | inhibition
COc1cc(Oc2c(O)cc(C)cc2OC)c(C(=O)O)c(C)c1O | Gag-Pol polyprotein, reverse transcriptase (gag-pol, Human immunodeficiency virus 1, UniProt P03366) | enzyme activity, inhibitor, PicoGreen fluorescence | – | 10 µM | 24.3%
CCn1c(C)c(C(=O)c2ccccc2)c(=O)n1-c1ccc(C)c(C)c1 | Tyrosine-protein kinase JAK2 (JAK2, Homo sapiens, UniProt O60674) | enzyme activity, inhibitor, ADP detection | – | 1 µM | 57.4%
COc1cc(C(=O)NC2CCC(N3CCN(CC4CCC5(CCCC5)C4)CC3)CC2)c(F)cc1Nc1ncc2c(n1)N(C1CCCC1(F)F)CC(F)(F)C(=O)N2C (stereo not shown) | RAF proto-oncogene serine/threonine-protein kinase (RAF1, Homo sapiens, UniProt P04049) | cell-free assay, TR-FRET | – | 10 µM | 6.19%
OC[C@H]1[C@@H](O)[C@@H](O)CN1Cc1ccncc1 | Alpha-mannosidase (Canavalia ensiformis, UniProt C0HJB3) | enzyme activity, inhibitor, absorbance | – | 2 mM | 9%
Cc1cc(=O)oc2cc3c(c(C)c12)C(=O)c1c(O)cccc1C3=O | mushroom tyrosinase | enzyme activity | – | 50 µg/mL, added: L-DOPA | 27.71 ± 0.25%
O=C1c2ccccc2C(=O)c2c1ccc1c2C(C(=O)Nc2ccccc2)C(=O)C1c1ccccc1 (stereo not shown) | mushroom tyrosinase | enzyme activity, inhibitor, spectrophotometry | – | 25 µg/mL, added: L-DOPA substrate | 10.6 ± 0.52%
COc1c2c(cc3oc(=O)cc(-c4ccc(O)cc4)c13)C(=O)c1cc(C)cc(O)c1C2=O | mushroom tyrosinase | enzyme activity | – | 25 µg/mL, added: L-DOPA | 33.73 ± 0.33%
Cc1cc(NC(=O)[C@H](O)c2cc(F)cc(F)c2)ccc1-c1cnc(N)c(C(=O)NC(C)C)c1 | Serine/threonine-protein kinase RIO1 (RIOK1, Homo sapiens, UniProt Q9BRS2) | cell-free assay, competition with immobilised ligand | – | 1 µM | > 50%
Cc1cc(O)c2c(c1)C(=O)c1cc3oc(=O)cc(-c4ccccc4)c3c(O)c1C2=O | mushroom tyrosinase | enzyme activity | – | 100 µg/mL, added: L-DOPA | 44.58 ± 0.15%
O=c1cc(-c2ccc(O)c(O)c2)oc2cc(O[C@@H]3O[C@H](CO)[C@@H](O)[C@H](O)[C@H]3O)cc(O)c12 | Anoctamin-1 (ANO1, Homo sapiens, UniProt Q5XXA6) | chloride current, inhibitor, whole-cell patch clamp | HEK293T expressing ANO1 | 100 µM | 18.5 ± 5.93%
Cc1cccc2c1NC(=O)C2(O)CC(=O)c1ccc2c(c1)OCO2 (stereo not shown) | Uncharacterized protein (Trypanosoma brucei brucei, UniProt Q386Q8) | enzyme activity, inhibitor, coupled colorimetric | Trypanosoma brucei | 100 µM | 13%
COc1cccc(OC)c1C(=O)N1CCN(Cc2ccccn2)CC1 | MAPK14 | primary fragment screen | – | 0.25 mM, added: ATP 10 µM | 71.9%
CC[C@H](C)[C@H](NC(=O)[C@@H]1CSSC[C@H](NC(=O)[C@H](Cc2ccc(O)cc2)NC(=O)CNC(C)=O)C(=O)N[C@@H](CO)C(=O)N[C@@H](CCCNC(=N)N)C(=O)N[C@@H](CO)C(=O)N[C@@H](Cc2ccc(O)cc2)C(=O)N2CCC[C@H]2C(=O)N2CCC[C@H]2C(=O)N[C@@H](C(C)C)C(=O)N1)C(=O)N1CCC[C@H]1C(=O)N[C@@H](CC(=O)O)C(=O)O | Mannan-binding lectin serine protease 1 (Homo sapiens, UniProt P48740) | enzyme activity, inhibitor | – | 15 µM, added: 10 nM MASP-1 | 17%
O=C(c1ccco1)N1CCN(Cc2ccc3c(c2)OCO3)CC1 | MAPK14 | primary fragment screen | – | 1 mM, added: ATP 10 µM | 69.4%
Cc1ccc(NC(=O)C2C(=O)C(c3ccccc3)c3ccc4c(c32)C(=O)c2ccccc2C4=O)cc1 (stereo not shown) | mushroom tyrosinase | enzyme activity, inhibitor, spectrophotometry | – | 100 µg/mL, added: L-DOPA substrate | 86.2 ± 1.52%
CCn1c(SC(C)C(=O)Nc2cccc(C)c2)nnc1C1CCN(C(=O)Nc2ccccc2)CC1 (stereo not shown) | Seed linoleate 13S-lipoxygenase-1 | enzyme activity, inhibitor | – | 250 µM | 89.6%
CC(C)C[C@H](NC(=O)[C@H](CCC(N)=O)NC(=O)[C@H](CCCNC(=N)N)NC(=O)[C@H](CCCNC(=N)N)NC(=O)[C@@H](NC(=O)[C@H](CCCNC(=N)N)NC(=O)[C@@H](NC(=O)[C@H](CO)NC(=O)[C@@H](N)CS)[C@@H](C)O)C(C)C)C(N)=O | Neutrophil cytosol factor 1 (NCF1, Homo sapiens, UniProt P14598) | Nox2 oxidase activity, inhibitor, cytochrome c reduction | COS-Nox2 cell-free system | 10 µM | ~85%
